Assay results gathered from unrelated publications.
Compare with care: the assays were run in different laboratories. Several values in a cell are separate wells, animals, samples, runs or records. Numbers after ± are the reported error.
lasR: Transcriptional activator protein LasR (lasR, Pseudomonas aeruginosa, UniProt P25084)
Uncharacterized hydrolase SAUSA300_2518: Uncharacterized hydrolase SAUSA300_2518 (Staphylococcus aureus, UniProt Q2FDS6)
ZAP70: Tyrosine-protein kinase ZAP-70 (ZAP70, Homo sapiens, UniProt P43403)
Chain of UniProt P43403 (whole entry, looked up): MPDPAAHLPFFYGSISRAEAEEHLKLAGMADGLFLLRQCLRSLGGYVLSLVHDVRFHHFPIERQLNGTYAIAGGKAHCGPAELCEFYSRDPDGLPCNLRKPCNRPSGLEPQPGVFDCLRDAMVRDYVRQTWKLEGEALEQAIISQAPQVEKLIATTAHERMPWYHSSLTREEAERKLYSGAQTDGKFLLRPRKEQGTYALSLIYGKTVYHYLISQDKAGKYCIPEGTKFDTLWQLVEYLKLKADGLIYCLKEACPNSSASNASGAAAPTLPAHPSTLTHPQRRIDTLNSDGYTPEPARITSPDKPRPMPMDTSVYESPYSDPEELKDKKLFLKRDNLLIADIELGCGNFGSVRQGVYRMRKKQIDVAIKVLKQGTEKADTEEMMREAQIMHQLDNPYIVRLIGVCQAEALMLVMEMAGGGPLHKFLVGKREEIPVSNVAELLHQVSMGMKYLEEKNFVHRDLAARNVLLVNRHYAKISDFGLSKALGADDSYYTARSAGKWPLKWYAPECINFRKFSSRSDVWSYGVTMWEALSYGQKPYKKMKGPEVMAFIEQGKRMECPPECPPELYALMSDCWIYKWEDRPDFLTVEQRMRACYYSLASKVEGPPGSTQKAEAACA
ADRA2A: Alpha-2A adrenergic receptor (ADRA2A, Homo sapiens, UniProt P08913)
Chain of UniProt P08913 (whole entry, looked up): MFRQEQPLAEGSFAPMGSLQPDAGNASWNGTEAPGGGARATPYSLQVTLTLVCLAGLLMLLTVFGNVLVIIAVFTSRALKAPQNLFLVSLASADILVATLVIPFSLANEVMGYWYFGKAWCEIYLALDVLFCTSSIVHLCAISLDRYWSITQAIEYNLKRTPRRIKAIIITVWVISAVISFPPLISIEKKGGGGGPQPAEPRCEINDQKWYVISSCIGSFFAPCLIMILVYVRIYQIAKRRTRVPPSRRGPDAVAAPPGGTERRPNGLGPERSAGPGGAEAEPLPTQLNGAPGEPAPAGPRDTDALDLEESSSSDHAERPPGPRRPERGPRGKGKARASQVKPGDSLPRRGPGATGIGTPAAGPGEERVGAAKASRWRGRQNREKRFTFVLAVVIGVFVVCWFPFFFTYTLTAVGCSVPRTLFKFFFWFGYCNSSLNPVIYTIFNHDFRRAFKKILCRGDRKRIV
Chain of UniProt Q92918 (whole entry, looked up): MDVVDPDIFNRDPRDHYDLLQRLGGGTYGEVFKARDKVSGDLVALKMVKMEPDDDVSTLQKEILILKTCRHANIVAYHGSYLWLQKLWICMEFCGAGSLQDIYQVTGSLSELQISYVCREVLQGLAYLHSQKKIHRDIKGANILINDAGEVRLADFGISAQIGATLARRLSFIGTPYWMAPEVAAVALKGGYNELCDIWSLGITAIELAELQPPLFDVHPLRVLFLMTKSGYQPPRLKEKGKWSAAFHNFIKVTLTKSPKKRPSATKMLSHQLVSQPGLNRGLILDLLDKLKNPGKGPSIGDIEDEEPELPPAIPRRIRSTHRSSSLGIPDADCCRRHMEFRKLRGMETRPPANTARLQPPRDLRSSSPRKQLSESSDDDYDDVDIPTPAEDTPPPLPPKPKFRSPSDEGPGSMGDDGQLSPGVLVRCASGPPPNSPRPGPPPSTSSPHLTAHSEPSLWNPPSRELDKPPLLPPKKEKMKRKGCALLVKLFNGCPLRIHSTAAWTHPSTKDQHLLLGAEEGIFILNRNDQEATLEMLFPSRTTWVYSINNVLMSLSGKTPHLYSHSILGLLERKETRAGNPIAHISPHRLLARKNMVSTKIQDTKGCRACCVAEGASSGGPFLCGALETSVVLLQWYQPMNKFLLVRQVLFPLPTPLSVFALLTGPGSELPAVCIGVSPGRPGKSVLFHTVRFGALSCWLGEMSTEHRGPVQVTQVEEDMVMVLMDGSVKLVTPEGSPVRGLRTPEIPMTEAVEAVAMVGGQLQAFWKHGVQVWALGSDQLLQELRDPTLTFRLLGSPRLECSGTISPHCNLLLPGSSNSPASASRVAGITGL
Chain of UniProt Q96GD4 (whole entry, looked up): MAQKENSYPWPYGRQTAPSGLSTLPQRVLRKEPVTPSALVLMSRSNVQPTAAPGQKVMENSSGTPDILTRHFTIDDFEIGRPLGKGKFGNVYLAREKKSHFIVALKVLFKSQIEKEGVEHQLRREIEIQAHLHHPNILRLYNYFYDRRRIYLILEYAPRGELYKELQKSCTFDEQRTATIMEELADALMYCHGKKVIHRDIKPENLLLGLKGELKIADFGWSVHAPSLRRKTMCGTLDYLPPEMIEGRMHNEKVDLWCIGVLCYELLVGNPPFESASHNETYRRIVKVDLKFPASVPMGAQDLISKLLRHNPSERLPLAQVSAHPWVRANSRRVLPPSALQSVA
Chain of UniProt P41595 (whole entry, looked up): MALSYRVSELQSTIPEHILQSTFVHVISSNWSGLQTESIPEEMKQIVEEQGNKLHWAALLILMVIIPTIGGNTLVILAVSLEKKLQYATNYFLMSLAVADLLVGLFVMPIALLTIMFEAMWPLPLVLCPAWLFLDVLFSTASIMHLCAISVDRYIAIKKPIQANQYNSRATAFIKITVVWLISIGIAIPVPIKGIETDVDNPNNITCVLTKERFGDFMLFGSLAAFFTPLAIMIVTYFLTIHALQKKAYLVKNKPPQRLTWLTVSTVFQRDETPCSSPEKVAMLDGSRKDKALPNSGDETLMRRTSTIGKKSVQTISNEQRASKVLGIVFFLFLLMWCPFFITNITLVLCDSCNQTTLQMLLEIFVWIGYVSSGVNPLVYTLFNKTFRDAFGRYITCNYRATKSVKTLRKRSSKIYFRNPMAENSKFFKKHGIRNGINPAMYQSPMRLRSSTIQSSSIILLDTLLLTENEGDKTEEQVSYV
Chain of UniProt Q9UK32 (whole entry, looked up): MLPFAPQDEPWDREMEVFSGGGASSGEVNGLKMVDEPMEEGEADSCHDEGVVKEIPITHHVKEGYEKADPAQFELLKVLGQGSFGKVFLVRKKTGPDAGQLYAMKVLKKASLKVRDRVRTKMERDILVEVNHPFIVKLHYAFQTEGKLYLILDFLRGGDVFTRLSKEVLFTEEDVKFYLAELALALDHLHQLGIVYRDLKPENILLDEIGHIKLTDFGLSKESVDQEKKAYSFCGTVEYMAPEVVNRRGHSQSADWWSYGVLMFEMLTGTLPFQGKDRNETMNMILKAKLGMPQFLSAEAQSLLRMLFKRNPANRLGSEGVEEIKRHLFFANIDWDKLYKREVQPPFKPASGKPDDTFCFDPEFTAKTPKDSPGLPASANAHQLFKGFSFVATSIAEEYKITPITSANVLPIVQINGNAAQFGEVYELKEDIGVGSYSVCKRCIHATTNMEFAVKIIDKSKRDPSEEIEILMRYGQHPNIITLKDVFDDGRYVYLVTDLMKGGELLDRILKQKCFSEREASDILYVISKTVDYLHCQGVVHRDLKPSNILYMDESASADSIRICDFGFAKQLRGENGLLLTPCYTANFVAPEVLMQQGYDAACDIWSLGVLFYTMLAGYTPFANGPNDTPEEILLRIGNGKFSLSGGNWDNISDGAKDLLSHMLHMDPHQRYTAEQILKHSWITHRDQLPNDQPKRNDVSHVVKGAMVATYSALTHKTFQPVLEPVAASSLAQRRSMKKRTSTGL
Chain of UniProt O14733 (whole entry, looked up): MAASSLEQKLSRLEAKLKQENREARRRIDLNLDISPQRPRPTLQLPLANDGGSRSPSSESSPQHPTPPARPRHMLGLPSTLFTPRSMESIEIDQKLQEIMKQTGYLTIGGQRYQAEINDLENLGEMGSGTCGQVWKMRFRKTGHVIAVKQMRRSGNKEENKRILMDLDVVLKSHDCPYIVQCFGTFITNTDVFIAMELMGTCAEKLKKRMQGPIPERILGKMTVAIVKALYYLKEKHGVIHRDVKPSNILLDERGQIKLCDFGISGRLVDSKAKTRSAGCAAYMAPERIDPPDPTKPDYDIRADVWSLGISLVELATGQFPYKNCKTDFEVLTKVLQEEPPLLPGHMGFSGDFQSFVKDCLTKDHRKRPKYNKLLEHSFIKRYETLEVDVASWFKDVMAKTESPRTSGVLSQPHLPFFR
Chain of UniProt P34981 (whole entry, looked up): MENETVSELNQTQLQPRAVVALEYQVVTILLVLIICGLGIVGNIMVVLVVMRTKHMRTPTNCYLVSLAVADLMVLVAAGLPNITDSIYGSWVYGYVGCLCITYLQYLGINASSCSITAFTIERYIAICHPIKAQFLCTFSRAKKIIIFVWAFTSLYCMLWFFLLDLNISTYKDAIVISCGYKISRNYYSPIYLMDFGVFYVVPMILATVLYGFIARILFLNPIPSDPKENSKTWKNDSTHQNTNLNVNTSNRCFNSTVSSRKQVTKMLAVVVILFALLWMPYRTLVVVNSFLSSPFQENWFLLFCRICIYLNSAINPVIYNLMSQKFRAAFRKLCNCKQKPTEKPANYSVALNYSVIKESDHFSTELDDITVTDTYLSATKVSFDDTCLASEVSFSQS

SMILES | tested on | test | system | setting | scale | measurement | result
COc1ccccc1-c1n[nH]c2nc(NC3CCN(C(=O)Cc4ccc(F)cc4F)CC3)ncc12 |  | bead binding, competition bead pull-down, item: LMJF.35.0370 | Leishmania donovani extract | 10 µM | relative to: vehicle | relative abundance | 0.95
CC(=O)NC[C@@H]1[C@@H](O)C[C@H]2[C@H](O)C[C@@H](CO)N12 | β-N-acetylglucosaminidase | enzyme activity, inhibitor, colorimetric | Canavalia ensiformis | 68.4 nM, added: p-nitrophenyl GlcNAc substrate |  | inhibition | 87.4% and 86.9%
CCCCCCCCCC(=O)NC1CCCC1 | lasR | reporter gene, antagonist | Pseudomonas aeruginosa PAO-JP2 | 100 µM, plasI-LVAgfp reporter, added: OdDHL 150 nM |  | inhibition | 59%
N[C@H](C(=O)N1CCCC1)C1CCN(c2nccc3c(-c4ncc(Cl)cc4Cl)cccc23)CC1 | TRHR (Homo sapiens, UniProt P34981) | functional response, antagonist |  | 10 µM |  | inhibition | 34%
C[C@H](NCc1ccc(-c2ccc(C(F)(F)F)cc2)cc1)C(N)=O | DYRK1B (Homo sapiens, UniProt Q9Y463) | cell-free assay, competition with immobilised ligand |  | 1 µM |  | inhibition | 3%
CC[C@H](C)[C@H](NC(=O)[C@H](CO)NC(=O)[C@H](Cc1ccc(O)cc1)NC(=O)[C@H](Cc1ccc(O)cc1)NC(=O)[C@H](CC(N)=O)NC(=O)CNC(=O)[C@H](CO)NC(=O)[C@H](Cc1ccc(O)cc1)NC(=O)[C@H](CO)NC(=O)[C@H](CO)NC(=O)[C@H](CC(N)=O)NC(=O)COCCOCCNC(=O)CN1CCN(CC(=O)O)CCN(CC(=O)O)CCN(CC(=O)O)CC1)C(=O)N[C@@H](CC(C)C)C(N)=O [copper-64 labelled] |  | dynamic PET | mouse, tamoxifen-induced PDAC, blood | intravenous, 0.1 µg/mouse, 17.5 min |  | tumour uptake | 4.92 %ID/mL
O=C1CCN1c1cccc(O)c1 | Uncharacterized hydrolase SAUSA300_2518 | enzyme activity, inhibitor |  | 50 µM |  | inhibition | 13.7%
O=C1NC(=O)c2c1c1cc(F)c[n+]3c1c1c2c2cc(O)ccc2[n]1[Ru-4]312([N]=C=S)[S+]3CC[S+]1CC[S+]2CC3 (stereo not shown) | NLK (Homo sapiens, UniProt Q9UBE8) | enzyme activity |  | 100 nM, human enzyme, added: 10 µM ATP | relative to: untreated | remaining activity | 85%
Cc1cc(Nc2nc(C[C@@]3(C(=O)O)CCN(Cc4cccc(Cl)c4F)[C@H](C)C3)cc(C)c2F)[nH]n1 | HTR2B (Homo sapiens, UniProt P41595) | inhibitor |  | 10 µM |  | inhibition | -9.41%
CN(CCO)CCO.O=C(O)C(Cl)Cl | Eleusine indica |  |  | 15 mg/mL, 21 days, pre-emergence, greenhouse |  | herbicidal inhibition | 0%
O=C(Cc1ccc(Br)cc1)N[C@H]1CCOC1=O | lasR | reporter gene, antagonist | Escherichia coli JLD271 | 10 µM, pSC11 and pJN105L plasmids, added: OdDHL 2 nM |  | inhibition | 66%
CN(/N=C/c1ccccc1C(=O)O)c1nc(-c2ccccc2Cl)cs1 | ZAP70 | enzyme activity, inhibitor |  | 1 µM |  | inhibition | -30.4%
OB(O)c1ccc(C(F)(F)F)s1 | Uncharacterized hydrolase SAUSA300_2518 | enzyme activity, inhibitor |  | 50 µM |  | inhibition | 97.4%
O=C(O)/C(S)=C/c1c[nH]c2ccc(F)cc12 | Ribosomal processing cysteine protease Prp (prp, Staphylococcus aureus, UniProt Q2FXS9, N63Q) | enzyme activity, inhibitor |  | 10 µM, prp 21.4 nM, added: FITC peptide substrate 0.5 µM |  | inhibition | 0.6 ± 19.2%
O=C(CC(=O)N[C@H]1CCOC1=O)Cc1ccccc1 | lasR | reporter gene, antagonist | Escherichia coli JLD271 | 10 µM, pSC11 and pJN105L plasmids, added: OdDHL 2 nM |  | inhibition | 53%
Nc1ccc(/C=C/C(=O)N2CCc3c(oc4c(-c5ccc(F)cc5)cc(-c5ccc(C(=O)N6CCC(F)(F)CC6)cn5)cc34)C2)cn1 | ZAP70 | binding, competition with immobilised ligand |  | 1 µM |  | remaining binding | 96%
CN[C@@H]1[C@H](O)[C@H](NC)[C@H]2O[C@]3(O)[C@H](O[C@@H]2[C@H]1O)O[C@H](C)C[C@H]3NC(=O)Cc1ccc(Cl)cn1 | ADRA2A | ligand displacement, radioligand |  | 10 µM |  | inhibition | -4%

SMILES | tested on | test | system | setting | scale | measurement | result
COc1ccc(F)cc1S(=O)(=O)Nc1cnc2c(c1)C(=O)NCCO2 | L-type calcium channel Benzothiazepine site | radioligand binding |  | 10 µM |  | inhibition | 19%
CC(C)[C@H]1NC(=O)C[C@H]2/C=C/CCSSC[C@@H](NC1=O)C(=O)N[C@H](Cc1cccc3ccccc13)C(=O)NCC(=O)O2 | RPS6KA6 (Homo sapiens, UniProt Q9UK32) | enzyme activity, inhibitor |  | 10 µM |  | inhibition | 0.8%
COc1ccccc1-c1n[nH]c2nc(N[C@H]3CC[C@H](NS(=O)(=O)CC(C)C)CC3)ncc12 |  | bead binding, competition bead pull-down, item: LINJ.36.6960 | Leishmania donovani extract | 10 µM | relative to: vehicle | relative abundance | 1.07
CS(C)(=O)=Nc1ccc(-c2ccc(-c3nc4cc(O[C@@H]5CO[C@H]6[C@@H]5OC[C@H]6O)[nH]c4cc3F)cc2)cc1 | MTOR (Homo sapiens, UniProt P42345) | enzyme activity, inhibitor |  | 10 µM |  | inhibition | -17%
C=CC(=O)Nc1cc(-c2nn(C3CCC(N4CCN(C(C)=O)CC4)CC3)c3ncnc(N)c23)ccc1Oc1ccccc1 (stereo not shown) | ERBB3 (Homo sapiens, UniProt P21860) | inhibitor, KiNativ profiling | biochemical | 2 µM |  | inhibition | 75.9%
O=C(CN1CN(c2ccccc2)C2(CCN(C(=O)c3cnc4[nH]ncc4c3)CC2)C1=O)NCC(F)(F)F | MAP2K7 (Homo sapiens, UniProt O14733) | inhibitor |  | concentration not given |  | inhibition | < 50%
O=C(O)c1ccccc1/C=N/Nc1nc(-c2ccccc2Cl)cs1 | MAP4K1 (Homo sapiens, UniProt Q92918) | enzyme activity, inhibitor |  | 1 µM |  | inhibition | -2.47%
CN(C)[C@H]1C[C@@]23CC[C@@]4(O2)C(=CC[C@]2(C)[C@@H](c5ccc6ccncc6c5)CC[C@H]24)C=C3[C@@H](O)[C@@H]1O | Aurora kinase B (AURKB, Homo sapiens, UniProt Q96GD4) | ATP probe labelling, inhibitor, KiNativ profiling |  | 0.1 µM |  | inhibition | 5%
Cc1cc(C(=O)Nc2nc3cccc(C)c3n2[C@H]2CCCCN(C(=O)/C=C/CN(C)C)C2)ccn1 | Trypanosoma brucei brucei |  | 2T1 wild type | 15 x EC50 |  | survival | -0.092% and -0.015% and -0.019% and -0.106%
CCCCCCCCCCCCn1nnc(CC(=O)O)n1 | lasR | reporter gene, antagonist | Escherichia coli JLD271 | 10 µM, pSC11 and pJN105L plasmids, added: OdDHL 2 nM |  | inhibition | -1%
O=C1C[C@@H](c2ccc(O)cc2)Oc2cc(O)ccc21 | PDE4D (Homo sapiens, UniProt Q08499) | enzyme activity, inhibitor, radiometric |  | 50 µM |  | inhibition | 30.3%
O=C1NC2(CC2)COc2ncc(F)cc2[C@H]2COCCN2c2ccn3ncc1c3n2 |  |  | Sprague-Dawley rat, male, serum | oral, 10 mg/kg/day, end of treatment, 4-week subacute toxicity |  | serum urea | 6.42 ± 6.15 mmol/L
Cc1nc2cccc(OCC(C)(C)C(=O)NC(C)C)c2c(N)c1C(=O)[O-].[Na+] | Salmonella typhimurium |  | TA100 | 0.32 mg per plate, with S9, preincubation |  | revertant colonies per plate | 120 ± 6
C/C(=N\OCCCN1CCCCC1)c1ccc(C(F)(F)F)cc1 | ADRA2A | antagonist, IP-One |  | 10 µM |  | inhibition | 10.6%
N=C(N)NCCC[C@@H]1NC(=O)[C@H](CCCCNC(=O)CCC(NC(=S)Nc2ccc(CC3CN(CC(=O)O)CCN(CC(=O)O)CCN(CC(=O)O)CCN3CC(=O)O)cc2)C(=O)NCCCC[C@@H]2NC(=O)[C@@H](Cc3ccc(O)cc3)NC(=O)[C@H](CC(=O)O)NC(=O)CNC(=O)[C@H](CCCNC(=N)N)NC2=O)NC(=O)[C@@H](Cc2ccc(O)cc2)NC(=O)[C@H](CC(=O)O)NC(=O)CNC1=O (stereo partly shown) [scandium-44 labelled] |  | ex vivo γ-counting | female athymic nude mice, U-87 MG xenograft, muscle | intravenous, 4 h |  | tissue uptake | 0.15 ± 0.09 %ID/g
CC(C)(C)C(=O)OCOP(=O)(OCOC(=O)C(C)(C)C)C1CCCN(O)C1=O (stereo not shown) | KM12 |  |  |  |  | log TGI | -4.88 log M
N#Cc1ccc(N2N=C3c4ccc(C(=O)O)cc4CCC3C2C2CCCC2)cc1Cl (stereo not shown) | DNA (cytosine-5)-methyltransferase 3B, with DNMT3L (DNMT3B, Homo sapiens, UniProt Q9UBC3) | enzyme activity |  | 10 µM |  | inhibition | 1%

Some of these lines once more:
SMILES | tested on | test | system | setting | scale | measurement | result
C/C(=N\OCCCN1CCCCC1)c1ccc(C(F)(F)F)cc1 | ADRA2A | antagonist, IP-One |  | 10 µM |  | inhibition | 10.6%
N=C(N)NCCC[C@@H]1NC(=O)[C@H](CCCCNC(=O)CCC(NC(=S)Nc2ccc(CC3CN(CC(=O)O)CCN(CC(=O)O)CCN(CC(=O)O)CCN3CC(=O)O)cc2)C(=O)NCCCC[C@@H]2NC(=O)[C@@H](Cc3ccc(O)cc3)NC(=O)[C@H](CC(=O)O)NC(=O)CNC(=O)[C@H](CCCNC(=N)N)NC2=O)NC(=O)[C@@H](Cc2ccc(O)cc2)NC(=O)[C@H](CC(=O)O)NC(=O)CNC1=O (stereo partly shown) [scandium-44 labelled] |  | ex vivo γ-counting | female athymic nude mice, U-87 MG xenograft, muscle | intravenous, 4 h |  | tissue uptake | 0.15 ± 0.09 %ID/g
CC(C)(C)C(=O)OCOP(=O)(OCOC(=O)C(C)(C)C)C1CCCN(O)C1=O (stereo not shown) | KM12 |  |  |  |  | log TGI | -4.88 log M
N#Cc1ccc(N2N=C3c4ccc(C(=O)O)cc4CCC3C2C2CCCC2)cc1Cl (stereo not shown) | DNA (cytosine-5)-methyltransferase 3B, with DNMT3L (DNMT3B, Homo sapiens, UniProt Q9UBC3) | enzyme activity |  | 10 µM |  | inhibition | 1%
